Published values of several laboratories.
Lines come from different studies, so protocols differ. ± marks the error that the study gave.

Compound | test | system | conditions | how to read | quantity | value
N=C(N)NCCC[C@H](NC(=O)[C@H](CCCNC(=N)N)NC(=O)[C@H](CCCNC(=N)N)NC(=O)[C@H](CCC(N)=O)NC(=O)[C@H](CCCNC(=N)N)NC(=O)[C@H](CCCNC(=N)N)NC(=O)[C@H](CCCCN)NC(=O)[C@H](CCCCN)NC(=O)[C@H](CCCNC(=N)N)NC(=O)CNC(=O)[C@H](Cc1ccc(O)cc1)NC(=O)[C@H](Cc1ccccc1)NC(=O)[C@H](Cc1ccccc1)NC(=O)[C@H](Cc1ccccc1)NC(=O)OCC1c2ccccc2-c2ccccc21)C(=O)O | ANS fluorescence | 10 mM PBS | pH 7.4, with: ANS 10 µM |  | critical aggregation concentration | ~21.4 µM
CCCCCCCCCCCCCCCC(=O)N[C@@H](CCC(=O)NCCCC[C@H](NC(=O)[C@H](CC(=O)O)NC(=O)[C@H](CO)NC(=O)[C@@H](NC(=O)[C@H](Cc1ccccc1)NC(=O)[C@@H](NC(=O)CNC(=O)[C@H](CCC(N)=O)NC(=O)[C@H](C)NC(=O)[C@@H](Cc1ccc(O)cc1)NC(C)=O)[C@@H](C)O)[C@@H](C)O)C(=O)N[C@@H](CO)C(=O)N[C@@H](CCCCN)C(=O)N[C@@H](Cc1ccc(O)cc1)C(=O)N[C@@H](CC(C)C)C(=O)N[C@@H](CC(=O)O)C(=O)N[C@@H](CCC(=O)O)C(=O)N[C@@H](CCCNC(=N)N)C(=O)N[C@@H](C)C(=O)N[C@@H](C)C(=O)N[C@@H](CCC(N)=O)C(=O)N[C@@H](CC(=O)O)C(=O)N[C@@H](Cc1ccccc1)C(=O)N[C@H](C(=O)N[C@@H](CCC(N)=O)C(=O)N[C@@H](Cc1c[nH]c2ccccc12)C(=O)N[C@@H](CC(C)C)C(=O)N[C@@H](CC(C)C)C(=O)N[C@@H](CCC(=O)O)C(=O)NCC(=O)NCC(=O)N1CCC[C@H]1C(=O)N[C@@H](CO)C(=O)N[C@@H](CO)C(=O)NCC(=O)N[C@@H](C)C(=O)N1CCC[C@H]1C(=O)N1CCC[C@H]1C(=O)N1CCC[C@H]1C(=O)N[C@@H](CO)C(N)=O)C(C)C)C(=O)O |  | male cynomolgus monkey, plasma | subcutaneous, 0.0211 mg/kg |  | AUC(0-inf) | 1240 ng·h/mL
CC(C(=O)O)n1nc(Cn2cc3cc(OCC[18F])c(Cl)cc3n2)c2ccccc2c1=O (racemic) | HPLC | nonhuman primate, plasma | 5 min post-injection | relative to: plasma radioactivity | lipophilic radiometabolite | 0%
CCCCCCCCCCCCCCCC(=O)N[C@@H](CCC(=O)NCCOCCOCCC(=O)NCCOCCOCCC(=O)NCCCC[C@H](NC(=O)[C@H](CC(=O)O)NC(=O)[C@H](CC(C)C)NC(=O)[C@H](Cc1ccc(O)cc1)NC(=O)[C@H](CCCCN)NC(=O)[C@H](CO)NC(=O)[C@H](Cc1ccc(O)cc1)NC(=O)[C@H](CC(=O)O)NC(=O)[C@H](CO)NC(=O)[C@@H](NC(=O)[C@H](Cc1ccccc1)NC(=O)[C@@H](NC(=O)CNC(=O)[C@H](CCC(N)=O)NC(=O)[C@@H](CO)NC(=O)[C@@H](N)Cc1c[nH]cn1)[C@@H](C)O)[C@@H](C)O)C(=O)N[C@@H](CCCNC(=N)N)C(=O)N[C@@H](CCCNC(=N)N)C(=O)N[C@@H](C)C(=O)N[C@@H](CCC(N)=O)C(=O)N[C@@H](CC(=O)O)C(=O)N[C@@H](Cc1ccccc1)C(=O)N[C@H](C(=O)N[C@@H](CCC(N)=O)C(=O)N[C@@H](Cc1c[nH]c2ccccc12)C(=O)N[C@@H](CC(C)C)C(=O)N[C@@H](CC(C)C)C(=O)N[C@@H](CC(N)=O)C(=O)N[C@H](C(=O)NCC(=O)NCC(=O)N1CCC[C@H]1C(=O)N[C@@H](CO)C(=O)N[C@@H](CO)C(=O)NCC(=O)N[C@@H](C)C(=O)N1CCC[C@H]1C(=O)N1CCC[C@H]1C(=O)N1CCC[C@H]1C(=O)N[C@@H](CO)C(N)=O)[C@@H](C)O)C(C)C)C(=O)O |  | rhesus monkey, male | subcutaneous, 20 µg/kg once daily, 28 days |  | urea | 5.82 ± 0.82 mmol/L
O=C1NC2(CC2)COc2ncc(F)cc2[C@H]2COCCN2c2ccn3ncc1c3n2 |  | Sprague-Dawley rat, female, heart | oral, 20 mg/kg/day, 4 weeks, end of treatment |  | organ-to-body weight ratio | 0.431 ± 0.047%
CC(C)[C@H]1NC(=O)[C@@H](C)NC(=O)[C@@H](C(C)C)NC(=O)[C@@H](Cc2ccccc2)NC(=O)[C@@H](C(C)C)NC(=O)[C@@H]([C@H](C)O)NC(=O)[C@@H](Cc2ccc(O)cc2)NC(=O)[C@@H](CCCNC(=N)N)NC(=O)[C@@H]2CCCC[C@H]2NC(=O)[C@@H](CO)NC(=O)[C@H](Cc2ccc(O)cc2)NC(=O)CSC[C@@H](C(=O)NCCOCCOCCOCCOCCOCCOCCC(N)=O)NC(=O)[C@@H](CO)NC(=O)[C@@H](C(C)C)NC(=O)[C@@H](Cc2ccc(O)cc2)NC1=O | HPLC | human serum | 10% serum, 37 °C |  | stability time | ≥ 24 h
O=C(CN1CCN(CC(=O)NCP(=O)([O-])[O-])CCN(CC(=O)NCP(=O)([O-])[O-])CCN(CC(=O)NCP(=O)([O-])[O-])CC1)NCP(=O)([O-])[O-].[Gd+3] |  | Sprague-Dawley rats, blood | intravenous, 35 µmol/kg, two-compartment model, with: GdDTPA 68 µmol/kg co-injected |  | clearance | 5.4 mL/min/kg
CCN(Cc1ccccc1)C(=O)CCc1nc(CN2CCN(C(=O)Cc3ccc(OC)c(OC)c3)CC2)no1 | rotarod test | mouse, CCI neuropathic pain model | 5 mg/kg |  | time to first slip | 0.8 ± 0.11 min
CC(C)[C@@H]1NC(=O)CNC(=O)[C@H](CC(N)=O)NC(=O)[C@H](CCCNC(=N)N)NC(=O)[C@H](Cc2ccc(O)cc2)NC(=O)[C@H](C(C)C)NC(=O)[C@@H](NC(=O)[C@@H](NC(=O)[C@H](CC(N)=O)NC(=O)[C@H](Cc2c[nH]c3ccccc23)NC(=O)[C@H](C)NC(=O)[C@H](Cc2ccccc2)NC(=O)CNC(=O)[C@H](CCCCN)NC(=O)[C@H](Cc2ccccc2)NC(=O)[C@H](Cc2ccccc2)NC(=O)[C@H](CCCCN)NC(=O)OCC2c3ccccc3-c3ccccc32)C(C)C)CSSC[C@@H](C(=O)N[C@@H](Cc2c[nH]cn2)C(=O)N[C@@H](CCCNC(=N)N)C(=O)N[C@@H](CCCNC(=N)N)C(=O)N[C@@H](C)C(=O)N[C@@H](CC(N)=O)C(N)=O)NC(=O)[C@H](C(C)C)NC(=O)[C@H](CCCNC(=N)N)NC1=O |  | ICR mice, blood | intraperitoneal, 10 mg/kg, day 5 |  | mean corpuscular haemoglobin | 13.8 ± 0.17 pg
CC[C@H](C)[C@@H]1NC(=O)[C@H](Cc2ccc(O)cc2)NC(=O)CCCSC[C@@H](C(=O)N(CC(=O)N[C@@H](CC(C)C)C(=O)NCC(N)=O)Cc2ccc(F)cc2)NC(=O)[C@H](CC(N)=O)NC(=O)[C@H](CCC(N)=O)NC1=O |  | human | intranasal and intravenous, 400 µg intranasal and 20 µg intravenous |  | deaths | 0%
CC(C)(c1cc(Br)c(O)c(Br)c1)c1cc(Br)c(O)c(Br)c1 | ultrafiltration | cow milk whey | 2000 nM nominal in whole milk |  | dose fraction in permeate | 5.74%
O=C(c1cc(Cc2n[nH]c(=O)c3ccccc23)ccc1F)N1CC(CNC2CC2)C1 |  | Wistar Han rat, male, blood | oral, 15 mg/kg daily, 4 weeks |  | haematocrit | 52.4 ± 3.3%
CCCCCCCCCCCCCCCCCC(=O)NC[C@H]1CC[C@H](C(=O)N[C@@H](CCC(=O)NCCCOCCOCCOCCCNC(=O)COCC(=O)N[C@@H](Cc2ccc(O)cc2)C(=O)NC(C)(Cc2ccccc2)C(=O)N[C@@H](CC(C)C)C(=O)N[C@@H](CCCC)C(=O)N[C@@H](CCCNC(=N)N)C(=O)N2CCC[C@H]2C(=O)N[C@@H](CCCNC(=N)NC)C(=O)N[C@@H](CC(N)=O)C(N)=O)C(=O)O)CC1 (stereo partly shown) |  | male C57BL/6 mouse, plasma | subcutaneous, 0.75 mg/kg, single dose |  | half-life | 282 min

Some of these lines once more:
Compound | test | system | conditions | how to read | quantity | value
CC(C)(c1cc(Br)c(O)c(Br)c1)c1cc(Br)c(O)c(Br)c1 | ultrafiltration | cow milk whey | 2000 nM nominal in whole milk |  | dose fraction in permeate | 5.74%
